Measurements from different studies.
Lines come from different studies, so protocols differ. Numbers after ± are the reported error.

Compound | assay | system | setting | how to read | endpoint | value
Cc1ncsc1-c1ccc(CNC(=O)[C@@H]2C[C@@H](OC(=O)OCCSSCCn3cc(CCCC(=O)N[C@@H](Cc4ccc(O)cc4)C(=O)N[C@@H](CCCNC(=N)N)C(=O)N[C@@H](CCCNC(=N)N)C(=O)N[C@@H](CCCNC(=N)N)C(=O)N[C@@H](CCCNC(=N)N)C(=O)N[C@@H](CCCNC(=N)N)C(=O)N[C@@H](CCCNC(=N)N)C(=O)N[C@@H](CCCNC(=N)N)C(=O)N[C@@H](CCCNC(=N)N)C(=O)N[C@@H](CCCNC(=N)N)C(N)=O)nn3)CN2C(=O)[C@@H](NC(=O)COCCOCCOCCNC(=O)C[C@@H]2N=C(c3ccc(Cl)cc3)c3c(sc(C)c3C)-n3c(C)nnc32)C(C)(C)C)cc1 | UHPLC | PBS | 100 nM, 2 h, 37 °C, with: 5 mM glutathione | baseline: total peak area | remaining intact compound | 0%
C[C@@H](O)[C@H](NC(=O)[C@@H]1CSSC[C@H](NC(=O)[C@@H](Cc2ccccc2)NC(=O)CN2CCCN3CCN(CCCN(CP(=O)(O)O)CC3)CC2)C(=O)N[C@@H](Cc2ccc(O)cc2)C(=O)N[C@H](Cc2c[nH]c3ccccc23)C(=O)N[C@@H](CCCCN)C(=O)N[C@@H]([C@@H](C)O)C(=O)N1)C(=O)O [copper-64 labelled] |  | male Lewis rat, AR-42J tumour-bearing | dose not given, 24 h | baseline: 1 h activity | reduction of lung activity | 76%
N=C(N)NCCC[C@@H]1NC(=O)[C@H](CCCCNC(=O)CNC(=O)CNC(=O)CNC(=O)CC[C@H](NC(=O)CNC(=O)CNC(=O)CNC(=O)c2ccc(NN=Cc3ccccc3S(=O)(=O)O)nc2)C(=O)NCC(=O)NCC(=O)NCC(=O)NCCCC[C@@H]2NC(=O)[C@@H](Cc3ccccc3)NC(=O)[C@H](CC(=O)O)NC(=O)CNC(=O)[C@H](CCCNC(=N)N)NC2=O)NC(=O)[C@@H](Cc2ccccc2)NC(=O)[C@H](CC(=O)O)NC(=O)CNC1=O [technetium-99m labelled] | shake-flask | n-octanol/phosphate buffer | pH 7.4 |  | log P | -4.44 ± 0.05
CSCC[C@H](NC(=O)[C@H](CC(C)C)NC(=O)[C@H](Cc1c[nH]cn1)NC(=O)CNC(=O)[C@@H](NC(=O)[C@H](C)NC(=O)[C@H](Cc1c[nH]c2ccccc12)NC(=O)[C@H](CCC(N)=O)NC(=O)CNC(=O)[C@H](CO)NC(=O)CNC(=O)CCCCCCCNC(=O)CCC(=O)Nc1ccc(CNC23CNCCNCC(N)(CNCCNC2)CNCCNC3)cc1)C(C)C)C(N)=O [copper-64 labelled] |  | mice, PC-3 xenograft | dose not given, 24 h | baseline: level at 1 h | blood radioactivity remaining | 3%
N=C(N)NCCC[C@@H]1NC(=O)[C@H](CCCCNC(=O)CCOCCOCCOCCOCCNC(=O)CC[C@H](NC(=O)CCOCCOCCOCCOCCNC(=O)CC[C@H](NC(=O)CN2CCN(CC(=O)O)CCN(CC(=O)O)CCN(CC(=O)O)CC2)C(=O)NCCOCCOCCOCCOCCC(=O)N[C@@H](CCC(=O)NCCOCCOCCOCCOCCC(=O)NCCCC[C@@H]2NC(=O)[C@@H](Cc3ccccc3)NC(=O)[C@H](CC(=O)O)NC(=O)CNC(=O)[C@H](CCCNC(=N)N)NC2=O)C(=O)NCCOCCOCCOCCOCCC(=O)NCCCC[C@@H]2NC(=O)[C@@H](Cc3ccccc3)NC(=O)[C@H](CC(=O)O)NC(=O)CNC(=O)[C@H](CCCNC(=N)N)NC2=O)C(=O)NCCOCCOCCOCCOCCC(=O)NCCCC[C@@H]2NC(=O)[C@@H](Cc3ccccc3)NC(=O)[C@H](CC(=O)O)NC(=O)CNC(=O)[C@H](CCCNC(=N)N)NC2=O)NC(=O)[C@@H](Cc2ccccc2)NC(=O)[C@H](CC(=O)O)NC(=O)CNC1=O [indium-111 labelled] |  | athymic nude mice, female, U-87 MG glioma xenograft, tumour and kidney | intravenous, 24 h | baseline: tumour over kidney | tumour to tissue ratio | 1.6 ± 0.39
CSCC[C@H](NC(=O)[C@H](CC(C)C)NC(=O)[C@H](Cc1c[nH]cn1)NC(=O)CNC(=O)[C@@H](NC(=O)[C@H](C)NC(=O)[C@H](Cc1c[nH]c2ccccc12)NC(=O)[C@H](CCC(N)=O)NC(=O)CCCCCNC(=O)CNC(=O)CNC(=O)CNC(=O)CSC(C)=O)C(C)C)C(N)=O [technetium-99m labelled] |  | Swiss mouse, bone | intravenous, 18.5 MBq, 30 min |  | tissue uptake | 0.13 ± 0.01 %ID/g
N=C(N)NCCC[C@@H]1NC(=O)[C@H](CCCCNC(=O)CCOCCOCCOCCOCCNC(=O)CN2CCN(CC(=O)O)CCN(CC(=O)O)CCN(CC(=O)O)CC2)NC(=O)[C@@H](Cc2ccccc2)NC(=O)[C@H](CC(=O)O)NC(=O)CNC1=O [indium-111 labelled] |  | athymic nude mice, female, U-87 MG glioma xenograft, tumour and brain | intravenous, 4 h | baseline: tumour over brain | tumour to tissue ratio | 73.1 ± 3
CCCC[C@H](NC(=O)CCCCCCCNC(=O)c1ccc(NN)nc1)C(=O)N[C@H]1CC(=O)NCCCC[C@@H](C(N)=O)NC(=O)[C@H](Cc2c[nH]c3ccccc23)NC(=O)[C@H](CCCNC(=N)N)NC(=O)[C@@H](Cc2ccccc2)NC(=O)[C@H](Cc2c[nH]cn2)NC1=O [technetium-99m labelled] |  | C57 mouse, B16/F1 melanoma, tumor | intravenous, 4 h |  | uptake | 22.2 ± 5.93 %ID/g
N=C(N)NCCC[C@@H]1NC(=O)[C@H](CCCCNC(=O)CC[C@H](NC(=O)CCOCCOCCOCCOCCNC(=O)CN2CCN(CC(=O)O)CCN(CC(=O)O)CCN(CC(=O)O)CC2)C(=O)NCCCC[C@@H]2NC(=O)[C@@H](Cc3ccccc3)NC(=O)[C@H](CC(=O)O)NC(=O)CNC(=O)[C@H](CCCNC(=N)N)NC2=O)NC(=O)[C@@H](Cc2ccccc2)NC(=O)[C@H](CC(=O)O)NC(=O)CNC1=O [indium-111 labelled] |  | athymic nude mice, female, U-87 MG glioma xenograft, tumour and liver | intravenous, 72 h | baseline: tumour over liver | tumour to tissue ratio | 2 ± 0.26
CC(C)C[C@H](NC(=O)[C@@H]1CCCN1C(=O)[C@H](CCCCN)NC(=O)[C@@H](N)CO)C(=O)N1CCC[C@H]1C(=O)N[C@@H](CCC(=O)O)C(=O)N[C@H](C(=O)N[C@H](C(=O)N[C@@H](CC(=O)O)C(=O)N[C@@H](CCC(=O)O)C(=O)N[C@@H](Cc1ccc(O)cc1)C(=O)N[C@@H](Cc1cn(CCOCCOCCOCCNC(=O)CCc2ccc(O)c(CN(CCN(CC(=O)O)Cc3cc(CCC(=O)NCCCC[C@H](NC(=O)N[C@@H](CCC(=O)O)C(=O)O)C(=O)O)ccc3O)CC(=O)O)c2)nn1)C(=O)O)[C@@H](C)O)C(C)C [gallium-68 labelled] |  | NMRI nu/nu mice, LNCaP tumour, brain | 10 MBq, high molar activity |  | standardized uptake value | 0.01 g/g
CCCC[C@H](NC(=O)CNC(=O)[C@H](CO)NC(=O)CNC(=O)c1ccc(NN)nc1)C(=O)N[C@H]1CC(=O)NCCCC[C@@H](C(N)=O)NC(=O)[C@H](Cc2c[nH]c3ccccc23)NC(=O)[C@H](CCCNC(=N)N)NC(=O)[C@@H](Cc2ccccc2)NC(=O)[C@H](Cc2c[nH]cn2)NC1=O [technetium-99m labelled] |  | C57 mouse, B16/F1 melanoma | 2 h | baseline: tumour over lung | uptake ratio | 50.1
N=C(N)NCCC[C@H](NC(=O)[C@H](CCCCN)NC(=O)[C@H](CCC(N)=O)NC(=O)CCOCCOCCOCCNC(=O)CN1CCN(CC(=O)O)CCN(CC(=O)O)CCN(CC(=O)O)CC1)C(=O)N[C@@H](CCCCN)C(=O)N[C@@H](CCCNC(=N)N)C(=O)N[C@@H](CCCCN)C(=O)N[C@@H](CCCCN)C(=O)N[C@@H](CO)C(=O)N[C@@H](CCCNC(=N)N)C(=O)N[C@@H](Cc1ccc(O)cc1)C(=O)N[C@@H](CCCCN)C(=O)N[C@@H](CO)C(=O)O [copper-64 labelled] | PET | mice, B16-F10 melanoma | intravenous, dose not given |  | time to peak tumour radioactivity | 10 min
N=C(N)NCCC[C@@H]1NC(=O)[C@H](CCCCNC(=O)CNC(=O)CNC(=O)CNC(=O)CC[C@H](NC(=O)CCOCCOCCOCCOCCNC(=O)CC[C@H](NC(=O)CN2CCN(CC(=O)O)CCN(CC(=O)O)CCN(CC(=O)O)CC2)C(=O)NCCOCCOCCOCCOCCC(=O)N[C@@H](CCC(=O)NCC(=O)NCC(=O)NCC(=O)NCCCC[C@@H]2NC(=O)[C@@H](Cc3ccccc3)NC(=O)[C@H](CC(=O)O)NC(=O)CNC(=O)[C@H](CCCNC(=N)N)NC2=O)C(=O)NCC(=O)NCC(=O)NCC(=O)NCCCC[C@@H]2NC(=O)[C@@H](Cc3ccccc3)NC(=O)[C@H](CC(=O)O)NC(=O)CNC(=O)[C@H](CCCNC(=N)N)NC2=O)C(=O)NCC(=O)NCC(=O)NCC(=O)NCCCC[C@@H]2NC(=O)[C@@H](Cc3ccccc3)NC(=O)[C@H](CC(=O)O)NC(=O)CNC(=O)[C@H](CCCNC(=N)N)NC2=O)NC(=O)[C@@H](Cc2ccccc2)NC(=O)[C@H](CC(=O)O)NC(=O)CNC1=O [indium-111 labelled] |  | athymic nude mice, female, U-87 MG glioma xenograft, tumour and liver | intravenous, 1 h | baseline: tumour over liver | tumour to tissue ratio | 4.39 ± 1.13
CC(C)C[C@@H]1NC(=O)[C@H](C(C)C)NC(=O)[C@H](CO)NC(=O)CNC(=O)CNC(=O)[C@H](CCCNC(=N)N)NC(=O)[C@@H]2CCCN2C(=O)[C@@H](NC(=O)CC[C@H](NC(=O)c2ccc(N(C)Cc3cnc4nc(N)nc(N)c4n3)cc2)C(=O)O)C(C)(C)SSC[C@@H](C(=O)O)NC(=O)CNC(=O)[C@H]([C@@H](C)O)NC(=O)[C@H](C(C)C)NC1=O | chemical stability | rat heart homogenate | 1 µM, 37 °C |  | half-life | 38 min
N=C(N)NCCC[C@@H]1NC(=O)[C@H](CCCCNC(=O)CC[C@H](NC(=O)CCOCCOCCOCCOCCNC(=O)CC[C@H](NC(=O)CN2CCN(CC(=O)O)CCN(CC(=O)O)CCN(CC(=O)O)CC2)C(=O)NCCOCCOCCOCCOCCC(=O)N[C@@H](CCC(=O)NCCCC[C@@H]2NC(=O)[C@@H](Cc3ccccc3)NC(=O)[C@H](CC(=O)O)NC(=O)CNC(=O)[C@H](CCCNC(=N)N)NC2=O)C(=O)NCCCC[C@@H]2NC(=O)[C@@H](Cc3ccccc3)NC(=O)[C@H](CC(=O)O)NC(=O)CNC(=O)[C@H](CCCNC(=N)N)NC2=O)C(=O)NCCCC[C@@H]2NC(=O)[C@@H](Cc3ccccc3)NC(=O)[C@H](CC(=O)O)NC(=O)CNC(=O)[C@H](CCCNC(=N)N)NC2=O)NC(=O)[C@@H](Cc2ccccc2)NC(=O)[C@H](CC(=O)O)NC(=O)CNC1=O [indium-111 labelled] |  | octanol/water |  |  | log P | -3.87 ± 0.11
CCCC[C@H](NC(=O)CNC(=O)CNC(=O)c1ccc(NN)nc1)C(=O)N[C@H]1CC(=O)NCCCC[C@@H](C(N)=O)NC(=O)[C@H](Cc2c[nH]c3ccccc23)NC(=O)[C@H](CCCNC(=N)N)NC(=O)[C@@H](Cc2ccccc2)NC(=O)[C@H](Cc2c[nH]cn2)NC1=O [technetium-99m labelled] |  | C57 mouse, B16/F1 melanoma-bearing | intravenous, 24 h | baseline: tumour over lung | tissue uptake ratio | 50.4

A few entries again:
Compound | assay | system | setting | how to read | endpoint | value
CSCC[C@H](NC(=O)[C@H](CC(C)C)NC(=O)[C@H](Cc1c[nH]cn1)NC(=O)CNC(=O)[C@@H](NC(=O)[C@H](C)NC(=O)[C@H](Cc1c[nH]c2ccccc12)NC(=O)[C@H](CCC(N)=O)NC(=O)CCCCCNC(=O)CNC(=O)CNC(=O)CNC(=O)CSC(C)=O)C(C)C)C(N)=O [technetium-99m labelled] |  | Swiss mouse, bone | intravenous, 18.5 MBq, 30 min |  | tissue uptake | 0.13 ± 0.01 %ID/g
N=C(N)NCCC[C@@H]1NC(=O)[C@H](CCCCNC(=O)CCOCCOCCOCCOCCNC(=O)CN2CCN(CC(=O)O)CCN(CC(=O)O)CCN(CC(=O)O)CC2)NC(=O)[C@@H](Cc2ccccc2)NC(=O)[C@H](CC(=O)O)NC(=O)CNC1=O [indium-111 labelled] |  | athymic nude mice, female, U-87 MG glioma xenograft, tumour and brain | intravenous, 4 h | baseline: tumour over brain | tumour to tissue ratio | 73.1 ± 3
